Results gathered from unrelated publications.
A part holds a random share of what one study measured. “And” joins repeats or separate records; there may be more than shown.
Chain of UniProt Q16584 (whole entry, looked up): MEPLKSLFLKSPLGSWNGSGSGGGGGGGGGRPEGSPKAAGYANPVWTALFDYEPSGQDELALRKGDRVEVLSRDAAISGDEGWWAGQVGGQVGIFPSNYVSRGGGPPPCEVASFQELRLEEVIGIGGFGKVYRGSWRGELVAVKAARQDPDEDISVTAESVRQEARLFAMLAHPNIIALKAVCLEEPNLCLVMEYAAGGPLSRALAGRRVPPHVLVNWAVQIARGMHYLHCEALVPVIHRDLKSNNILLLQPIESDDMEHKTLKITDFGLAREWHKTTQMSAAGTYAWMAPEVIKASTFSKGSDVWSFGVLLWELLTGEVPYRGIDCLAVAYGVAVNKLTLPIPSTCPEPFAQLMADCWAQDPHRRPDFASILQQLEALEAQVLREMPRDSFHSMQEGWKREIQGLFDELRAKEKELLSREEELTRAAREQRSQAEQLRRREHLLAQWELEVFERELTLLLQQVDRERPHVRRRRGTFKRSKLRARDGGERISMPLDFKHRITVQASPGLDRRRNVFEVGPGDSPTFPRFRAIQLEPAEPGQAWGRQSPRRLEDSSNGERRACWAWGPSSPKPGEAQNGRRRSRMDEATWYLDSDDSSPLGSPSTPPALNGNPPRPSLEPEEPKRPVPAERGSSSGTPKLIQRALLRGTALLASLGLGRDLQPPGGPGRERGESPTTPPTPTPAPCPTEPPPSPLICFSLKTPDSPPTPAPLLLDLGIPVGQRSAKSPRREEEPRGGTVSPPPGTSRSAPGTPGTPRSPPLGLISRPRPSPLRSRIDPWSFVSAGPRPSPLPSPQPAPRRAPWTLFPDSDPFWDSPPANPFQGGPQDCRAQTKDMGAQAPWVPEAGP
Chain of UniProt Q9UQM7 (whole entry, looked up): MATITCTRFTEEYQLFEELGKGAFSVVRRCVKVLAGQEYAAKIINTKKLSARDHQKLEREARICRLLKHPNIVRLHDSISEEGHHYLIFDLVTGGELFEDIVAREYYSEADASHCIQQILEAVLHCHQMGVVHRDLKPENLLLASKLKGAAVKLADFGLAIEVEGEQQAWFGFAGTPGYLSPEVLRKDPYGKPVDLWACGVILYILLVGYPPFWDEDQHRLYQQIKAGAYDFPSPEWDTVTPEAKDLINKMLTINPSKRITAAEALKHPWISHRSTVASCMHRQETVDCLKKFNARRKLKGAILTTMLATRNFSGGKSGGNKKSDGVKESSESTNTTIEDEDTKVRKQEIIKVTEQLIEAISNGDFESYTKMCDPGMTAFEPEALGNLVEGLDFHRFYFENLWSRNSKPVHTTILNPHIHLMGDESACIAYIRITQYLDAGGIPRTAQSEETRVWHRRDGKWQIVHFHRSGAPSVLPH
Chain of UniProt P35626 (whole entry, looked up): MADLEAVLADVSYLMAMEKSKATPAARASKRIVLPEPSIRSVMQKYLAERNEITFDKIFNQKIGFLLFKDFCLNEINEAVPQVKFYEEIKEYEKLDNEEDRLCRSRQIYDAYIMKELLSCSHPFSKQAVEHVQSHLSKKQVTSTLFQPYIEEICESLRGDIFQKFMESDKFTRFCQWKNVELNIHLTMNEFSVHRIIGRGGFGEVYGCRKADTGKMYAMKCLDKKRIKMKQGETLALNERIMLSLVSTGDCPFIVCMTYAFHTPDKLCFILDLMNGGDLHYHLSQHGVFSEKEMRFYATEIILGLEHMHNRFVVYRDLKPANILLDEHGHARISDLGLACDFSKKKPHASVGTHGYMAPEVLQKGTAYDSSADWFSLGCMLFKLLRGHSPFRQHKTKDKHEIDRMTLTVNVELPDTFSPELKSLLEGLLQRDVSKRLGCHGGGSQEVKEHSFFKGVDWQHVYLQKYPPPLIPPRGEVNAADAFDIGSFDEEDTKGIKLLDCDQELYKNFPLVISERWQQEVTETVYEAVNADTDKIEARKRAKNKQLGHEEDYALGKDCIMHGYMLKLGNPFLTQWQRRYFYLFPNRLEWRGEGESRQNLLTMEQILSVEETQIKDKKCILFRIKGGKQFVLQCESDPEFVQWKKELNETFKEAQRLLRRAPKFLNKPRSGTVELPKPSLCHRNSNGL
Chain of UniProt Q96L34 (whole entry, looked up): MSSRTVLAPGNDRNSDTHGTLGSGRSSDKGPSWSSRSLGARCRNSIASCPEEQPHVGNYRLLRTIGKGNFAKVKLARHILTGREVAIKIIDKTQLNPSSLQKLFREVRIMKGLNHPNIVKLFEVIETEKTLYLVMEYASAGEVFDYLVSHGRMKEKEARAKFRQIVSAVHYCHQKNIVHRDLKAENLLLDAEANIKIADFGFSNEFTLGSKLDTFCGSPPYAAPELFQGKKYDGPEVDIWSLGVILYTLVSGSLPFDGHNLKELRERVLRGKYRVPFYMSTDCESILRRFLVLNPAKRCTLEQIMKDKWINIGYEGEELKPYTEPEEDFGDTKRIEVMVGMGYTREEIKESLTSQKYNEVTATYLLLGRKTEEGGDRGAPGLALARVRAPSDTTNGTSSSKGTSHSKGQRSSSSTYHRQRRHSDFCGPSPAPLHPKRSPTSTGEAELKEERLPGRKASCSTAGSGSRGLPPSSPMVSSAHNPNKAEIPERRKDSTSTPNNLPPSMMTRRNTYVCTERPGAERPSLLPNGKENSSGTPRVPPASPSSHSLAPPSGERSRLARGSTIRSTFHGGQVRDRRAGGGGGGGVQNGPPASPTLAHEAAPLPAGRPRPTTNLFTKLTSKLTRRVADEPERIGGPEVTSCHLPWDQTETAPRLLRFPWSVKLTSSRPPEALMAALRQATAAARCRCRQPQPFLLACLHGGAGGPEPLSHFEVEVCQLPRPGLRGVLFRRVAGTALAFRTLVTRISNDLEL
Chain of UniProt P51817 (whole entry, looked up): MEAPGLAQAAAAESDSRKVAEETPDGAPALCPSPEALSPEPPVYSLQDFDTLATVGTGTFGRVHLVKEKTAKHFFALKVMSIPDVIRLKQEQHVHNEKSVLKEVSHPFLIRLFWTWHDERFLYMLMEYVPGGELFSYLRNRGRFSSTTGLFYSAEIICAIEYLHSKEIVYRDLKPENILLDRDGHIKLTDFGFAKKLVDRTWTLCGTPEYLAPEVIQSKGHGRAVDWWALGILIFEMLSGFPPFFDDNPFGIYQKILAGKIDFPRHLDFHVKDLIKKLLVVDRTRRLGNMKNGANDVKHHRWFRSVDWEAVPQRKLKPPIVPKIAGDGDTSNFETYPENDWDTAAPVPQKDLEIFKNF
Chain of UniProt P49137 (whole entry, looked up): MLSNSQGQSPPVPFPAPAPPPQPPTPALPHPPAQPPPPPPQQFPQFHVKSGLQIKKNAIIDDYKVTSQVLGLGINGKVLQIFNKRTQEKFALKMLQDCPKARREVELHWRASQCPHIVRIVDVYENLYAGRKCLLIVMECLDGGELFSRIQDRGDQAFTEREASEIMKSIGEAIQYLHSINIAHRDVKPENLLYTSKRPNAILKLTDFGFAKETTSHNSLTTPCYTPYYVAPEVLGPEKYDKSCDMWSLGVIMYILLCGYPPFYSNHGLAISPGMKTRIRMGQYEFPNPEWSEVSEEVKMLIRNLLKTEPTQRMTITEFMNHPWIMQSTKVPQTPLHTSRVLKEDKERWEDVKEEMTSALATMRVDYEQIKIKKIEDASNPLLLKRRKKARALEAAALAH
Chain of UniProt Q9BXA7 (whole entry, looked up): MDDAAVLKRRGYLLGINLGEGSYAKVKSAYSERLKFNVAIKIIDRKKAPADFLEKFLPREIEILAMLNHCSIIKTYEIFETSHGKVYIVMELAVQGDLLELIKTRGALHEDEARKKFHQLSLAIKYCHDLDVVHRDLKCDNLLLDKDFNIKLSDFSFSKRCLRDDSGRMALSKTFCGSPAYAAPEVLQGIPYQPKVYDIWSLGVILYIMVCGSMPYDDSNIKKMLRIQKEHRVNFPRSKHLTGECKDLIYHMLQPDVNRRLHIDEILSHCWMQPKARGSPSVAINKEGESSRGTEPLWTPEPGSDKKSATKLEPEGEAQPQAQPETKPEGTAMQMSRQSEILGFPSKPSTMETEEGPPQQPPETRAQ
Chain of UniProt Q9Y6E0 (whole entry, looked up): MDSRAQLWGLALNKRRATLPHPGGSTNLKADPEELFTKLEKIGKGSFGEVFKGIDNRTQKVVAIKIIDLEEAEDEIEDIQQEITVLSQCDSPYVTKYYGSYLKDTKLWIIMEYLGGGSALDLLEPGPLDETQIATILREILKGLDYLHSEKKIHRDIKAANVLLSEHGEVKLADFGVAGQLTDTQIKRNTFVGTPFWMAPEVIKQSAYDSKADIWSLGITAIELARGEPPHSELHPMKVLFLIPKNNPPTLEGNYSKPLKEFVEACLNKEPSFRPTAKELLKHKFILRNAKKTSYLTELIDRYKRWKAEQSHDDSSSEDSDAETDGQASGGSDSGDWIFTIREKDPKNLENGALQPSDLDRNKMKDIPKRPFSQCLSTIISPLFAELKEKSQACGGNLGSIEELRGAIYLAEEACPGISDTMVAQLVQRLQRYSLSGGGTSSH

Sample 1 — method: universal PBM; molecule type: double-stranded DNA, one strand shown; sample: in vitro; concentration: not given; direction: higher = stronger binding
Target: Sal-like protein 4, full length isoform B (SALL4, Homo sapiens, UniProt Q9UJQ4-2, residues 1-616)
Setting: 8-mer, flanks averaged, mean of replicates
Construct (chain): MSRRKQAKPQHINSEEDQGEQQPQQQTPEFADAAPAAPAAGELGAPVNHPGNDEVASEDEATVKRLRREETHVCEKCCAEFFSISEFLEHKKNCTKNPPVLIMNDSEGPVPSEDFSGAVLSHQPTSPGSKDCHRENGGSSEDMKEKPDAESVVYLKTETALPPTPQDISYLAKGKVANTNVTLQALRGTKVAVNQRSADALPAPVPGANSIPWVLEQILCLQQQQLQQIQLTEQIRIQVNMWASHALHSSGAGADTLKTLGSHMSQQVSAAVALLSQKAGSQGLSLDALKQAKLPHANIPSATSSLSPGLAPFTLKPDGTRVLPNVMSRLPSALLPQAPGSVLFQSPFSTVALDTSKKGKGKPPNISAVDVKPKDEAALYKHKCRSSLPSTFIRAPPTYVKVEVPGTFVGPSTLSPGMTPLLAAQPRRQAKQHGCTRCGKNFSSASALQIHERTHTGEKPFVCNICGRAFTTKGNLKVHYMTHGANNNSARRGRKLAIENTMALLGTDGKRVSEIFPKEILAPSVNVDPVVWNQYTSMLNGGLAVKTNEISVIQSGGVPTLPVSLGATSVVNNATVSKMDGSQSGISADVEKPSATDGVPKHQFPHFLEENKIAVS
The E-score of `CAGGCTGA` is reported as -0.229.
The E-score of `CAGGATCA` is reported as -0.175.
With `CTAGCCCC` the E-score was -0.212.
For `AAAGGTAA`, the E-score was 0.179.
With `TCGCGTAA` the E-score was 0.155.
The E-score of `TCCTAGCA` is reported as -0.05.
`AACCATTG` has an E-score of 0.12.
`AAGGCTGT` has an E-score of -0.187.

Sample 2 — concentration: 1 µM
Compound: CCC(=O)N[C@H]1CC[C@@H](C(=O)N(C)c2ccc(-c3nc4ccccc4o3)cc2)C1
STK24 (Homo sapiens, UniProt Q9Y6E0); cell-free assay, competition with immobilised ligand — remaining binding: 95%.
BUB1 (Homo sapiens, UniProt O43683); cell-free assay, competition with immobilised ligand — remaining binding: 74%.
Ribosomal protein S6 kinase alpha-2, C-terminal kinase domain (RPS6KA2, Homo sapiens, UniProt Q15349); cell-free assay, competition with immobilised ligand — remaining binding: 100%.
The remaining binding was 75% (Tyrosine-protein kinase ABL1, phosphorylated (ABL1, Homo sapiens, UniProt P00519, E255K); binding, competition with immobilised ligand).
For MAP3K6 (Homo sapiens, UniProt O95382); cell-free assay, competition with immobilised ligand: remaining binding read 76%.
CAMK2A (Homo sapiens, UniProt Q9UQM7); cell-free assay, competition with immobilised ligand — remaining binding: 94%.
It gave 93% for remaining binding (MAP3K11 (Homo sapiens, UniProt Q16584); cell-free assay, competition with immobilised ligand).
FLT3 (Homo sapiens, UniProt P36888, N841I); cell-free assay, competition with immobilised ligand — remaining binding: 100%.
MARK4 (Homo sapiens, UniProt Q96L34); cell-free assay, competition with immobilised ligand — remaining binding: 100%.
FLT3 (Homo sapiens, UniProt P36888, R834Q); cell-free assay, competition with immobilised ligand — remaining binding: 100%.
The remaining binding was 97% (MAPKAPK2 (Homo sapiens, UniProt P49137); cell-free assay, competition with immobilised ligand).
For TSSK1B (Homo sapiens, UniProt Q9BXA7); cell-free assay, competition with immobilised ligand: remaining binding read 91%.
It gave 91% for remaining binding (PRKX (Homo sapiens, UniProt P51817); cell-free assay, competition with immobilised ligand).
It gave 80% for remaining binding (GRK3 (Homo sapiens, UniProt P35626); cell-free assay, competition with immobilised ligand).
It gave 100% for remaining binding (DYRK1B (Homo sapiens, UniProt Q9Y463); cell-free assay, competition with immobilised ligand).
The remaining binding was 91% (CDC42BPG (Homo sapiens, UniProt Q6DT37); competition binding).

Sample 3 — read-out: AlphaScreen signal; method: AlphaScreen counter screen; sample: His6 peptide without bromodomain; concentration: 50 µM; setting: assay interference check
The inhibition of `COc1ccccc1-c1cnc2[nH]c(=O)n(C3CCCC3)c2n1` is reported as 12.6%.
`c1cncc(-c2[nH]c3ncccc3c2CN2CCOCC2)c1` gave an inhibition of 2.45%.
For `NC(=O)CSc1ccc2nnc(-c3cccc(F)c3)n2n1`, the inhibition was 4.3%.

Sample 4 — cell line: A-375; concentration: 100 µM; time: 36 h
With `CC[C@]1(O)C[C@@H]2CN(CCc3c([nH]c4ccccc34)[C@@](C(=O)OC)(c3cc4c(cc3OC)N(C)[C@H]3[C@@](O)(C(=O)OC)[C@H](OC(C)=O)[C@]5(CC)C=CCN6CC[C@]43[C@@H]65)C2)C1` the viability was 11.2%.
`CCOc1ccccc1OCCN[C@H](C)Cc1ccc(OC)c(S(N)(=O)=O)c1` has a viability of 99.2%.
`c1cnc(N2CCN(Cc3ccc4c(c3)OCO4)CC2)nc1` gave a viability of 83.2%.

Sample 5 — cell line: Huh-7; concentration: 10 µM; time: 24 h
With `Nc1cc(N2CCCCC2)nc(N)[n+]1[O-]` the viability was 97.8%.
The viability of `CO/N=C(\C(=O)N[C@@H]1C(=O)N2C(C(=O)OC(C)OC(C)=O)=C(COC(N)=O)CS[C@H]12)c1ccco1` (stereo partly drawn) is reported as 96.9%.
The viability of `NC(=O)NO` is reported as 98.9%.

Mixed results
The remaining compound of `Cc1onc2c(=O)n(C)nc(C(=O)N3CCN(C)CC3C)c12` (stereo not drawn) is reported as 90.5% (mouse, microsomes or S9; 2 µM, 0.5 h).
`CN(C)CCOC(c1ccc(Cl)cc1)c1ccccn1` (stereo not drawn) has a nuclei count of 2.9 z-score (mouse MPNST tumor cells; high-content nuclear imaging, item: cell number; 10 µM, 12 h, mean of 2 replicates; baseline: plate mean, higher = more cells).
The remaining compound of `CCc1ccc(-c2cn(Cc3ncc[nH]3)nn2)nc1` is reported as 73.2% (mouse, microsomes or S9; 2 µM, 0.5 h).
With `CN1CCC(=C2c3ccccc3CCc3cccnc32)CC1` the nuclei count was 4.29 z-score and 1.59 z-score (mouse MPNST tumor cells; high-content nuclear imaging, item: cell number; 10 µM, 12 h, mean of 2 replicates; baseline: plate mean, higher = more cells).
`CC(C)n1cnc(-c2ccc(F)cc2)c1-c1ncc(C(=O)Nc2ccc(N3CCN(C)CC3)cc2)[nH]1` — result for “patients with hepatic steatosis”: 0% (human, idiopathic pulmonary fibrosis; 60 mg once daily, trial, treatment-emergent).
`Cc1c(C#N)c(NS(=O)(=O)CCCCF)n2ccccc12` gave a remaining compound of 10.9% (mouse, microsomes or S9; 2 µM, 0.5 h).

For quick reference, copied from above (sample 4):
With `CC[C@]1(O)C[C@@H]2CN(CCc3c([nH]c4ccccc34)[C@@](C(=O)OC)(c3cc4c(cc3OC)N(C)[C@H]3[C@@](O)(C(=O)OC)[C@H](OC(C)=O)[C@]5(CC)C=CCN6CC[C@]43[C@@H]65)C2)C1` the viability was 11.2%.
`CCOc1ccccc1OCCN[C@H](C)Cc1ccc(OC)c(S(N)(=O)=O)c1` has a viability of 99.2%.
`c1cnc(N2CCN(Cc3ccc4c(c3)OCO4)CC2)nc1` gave a viability of 83.2%.
